# Experimental data of several laboratories.
# Each numbered part is a random draw from the data of one study; scales do not carry over between parts. Changes are numbered by the printed parent chain.

# Set 1
# Target: CCNE1, cyclin fold, Cln2 fusion (human)
# Method: yeast growth competition, sequencing
# Sample: yeast
# Notes: strong parent motif
# Relative to: not given
# Reading: higher = stronger binding
# Starting sequence: RBL1 docking peptide (human); GSAKRRLFGEDPP; partner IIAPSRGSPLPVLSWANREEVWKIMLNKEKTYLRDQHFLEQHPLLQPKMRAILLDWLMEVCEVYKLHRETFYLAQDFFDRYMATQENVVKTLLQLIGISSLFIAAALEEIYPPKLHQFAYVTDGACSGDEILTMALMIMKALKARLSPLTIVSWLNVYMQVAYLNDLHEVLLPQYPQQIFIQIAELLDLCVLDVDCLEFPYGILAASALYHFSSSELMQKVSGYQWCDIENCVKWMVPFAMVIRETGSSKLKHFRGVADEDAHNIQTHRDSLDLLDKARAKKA
Change,normalised enrichment score
QSAKRRLFGEDPP [G1Q],6.55
GSAKRRLFVEDPP [G9V],7.67
LSAKRRLFGEDPP [G1L],7.7
GSAKRRQFGEDPP [L7Q],0.77
GSAKRRKFGEDPP [L7K],1.1
GSFKRRLFGEDPP [A3F],5.72
GSAKQRLFGEDPP [R5Q],0.188
GSAKFRLFGEDPP [R5F],0.205
GSAKRRLFGEDPA [P13A],6.2
GSAKRRLCGEDPP [F8C],0.0184
GSAKRRLRGEDPP [F8R],0.0533
GSTKRRLFGEDPP [A3T],4.33
GSAFRRLFGEDPP [K4F],3
GTAKRRLFGEDPP [S2T],6.06
WSAKRRLFGEDPP [G1W],6.43
ESAKRRLFGEDPP [G1E],6.35
GSRKRRLFGEDPP [A3R],-0.14
KSAKRRLFGEDPP [G1K],6.14
GSAKRRLFGVDPP [E10V],4.3
GSAKRRLFHEDPP [G9H],7.02
GSAKRRLWGEDPP [F8W],3.43
GSAYRRLFGEDPP [K4Y],1.54
GSAKRRSFGEDPP [L7S],0.453
GSATRRLFGEDPP [K4T],3.58

# Set 2
# Target: Histone acetyltransferase KAT6A, winged helix 1, GST fusion (KAT6A, Homo sapiens, UniProt Q92794, residues 1-85)
# Method: protein binding microarray
# Molecule type: double-stranded DNA, one strand shown
# Sample: in vitro
# Concentration: not given
# Notes: 8-mer, flanks averaged, mean of 2 arrays, mostly near background
# Relative to: not given
# Reading: higher = stronger binding
# Target sequence (chain): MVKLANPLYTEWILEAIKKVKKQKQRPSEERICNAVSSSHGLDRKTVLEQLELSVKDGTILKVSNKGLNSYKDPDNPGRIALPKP
Strand,E-score
AATCACAT,-0.0864
ACCAAGAG,-0.207
CCACCACC,-0.149
CTAACTAC,-0.103
AAGTTGAG,-0.113
CCAACGGG,0.212
CTAGGTAC,-0.133
AACCATAT,-0.146
CGTTGTGC,0.136
ACACATCT,-0.209
GACCCACC,0.0364
CCTCCTTA,-0.209
CAATAGTC,-0.227
CTAGGCAC,-0.133
GGAGTCAC,-0.122
GACTGGTA,0.00607

# Set 3
# Target: Hepatocyte nuclear factor 3-alpha (Foxa1, Mus musculus, UniProt P35582, residues 1-468, full length assumed)
# Chain of UniProt P35582 (whole entry, looked up): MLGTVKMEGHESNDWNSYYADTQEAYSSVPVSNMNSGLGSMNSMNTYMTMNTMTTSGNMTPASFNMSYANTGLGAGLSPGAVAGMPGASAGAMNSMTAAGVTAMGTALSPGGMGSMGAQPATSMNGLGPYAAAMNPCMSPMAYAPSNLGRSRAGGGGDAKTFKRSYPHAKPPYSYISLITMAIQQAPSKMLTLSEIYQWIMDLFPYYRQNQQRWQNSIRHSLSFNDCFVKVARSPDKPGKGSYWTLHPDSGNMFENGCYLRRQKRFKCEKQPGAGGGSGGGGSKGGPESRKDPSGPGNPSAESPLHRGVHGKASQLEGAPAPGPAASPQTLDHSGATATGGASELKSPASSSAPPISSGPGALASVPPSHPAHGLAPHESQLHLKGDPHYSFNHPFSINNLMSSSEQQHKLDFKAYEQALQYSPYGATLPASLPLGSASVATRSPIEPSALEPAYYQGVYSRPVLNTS
# Method: EMSA with sequencing
# Molecule type: double-stranded DNA, one strand shown
# Sample: in vitro
# Concentration: 10 and 20 nM
# Notes: whole designed probe, mean of two concentrations, ends assumed
# Relative to: negative control set to 0
# Reading: higher = stronger binding
# Shared flanks, not repeated: GTGAGCGGTGCCCATTGATGGGGAAC … TTTCACTGGGATCGTGGGGAC
Strand,normalised bound fraction [ratio]
GTTTTTTTTTTTAAGTTAGTAGTACCTTCTGTATCCTTCAAACATCTAAAGAGAAAAAGCTAATAGATTGTGCAATATTTCCAGAAGGCAAAGTAAACATGCAACAAAAAAGTAAAGTAAAAGATGATCTTATGTTTGAAATGTTTCTGAGCTTTGTTTGATGGTTTCTTGATTGTGTGTGTGAGTGTGTGTG,0.325
ATCTTCCCCCTCTTCCTTGCCCCACCAGCTCACCTTCCCGGGTTATTTGCAGATAGGAAAATAAATAAAGCCGGCATTCGTTAACGCAGTTCACGCGCATACTGCTGTTTGCTCTGGATCTAACATGGTCCTTTGGCGAGGCGTGGCTCCGGGAGAGCAAAGCACCGTGTCAGGGCCATGATCCGGGCTCGCC,0.352
TTAAAATTCCAAAGCACAAGTAGTAAAACAAATAAACATAAAAGGTTTGATTCAAAATTAAATATTTTTTCATTCTACAAAGGATATAACAAAGTAATTTAAGAAATAAAGAATAGGAGAATATATTTATGCCTCAAACAAAAAAAATCATCTGGCATATACAAGAAATTCCTACAAGTCAACATTTTAAAAA,0.4
CTTGTCTACAATCCAGTATTTAATAGCAACTTCATCTACCAAGTGGGATAATGAATTACAAATGATAAGATGTGATCTCAAATGTTTTAGAAAAGTAAACATGGGAGAAATAATTAAAAGTTGAAAGGCCTATTTGGAAAACAAAGGGAGAGTCATGGAGGTTTCTATCAAATTCCAGGGACAGGCAGTAGCA,0.438
ACTAAATACAAACGATTAGAGCGTCACGGAAGATTAGCAAACATTCTACTGCAAACAGCACTCCCAGATCCACAGAAACCAGGTCACTACTATGTAAACATTTTGCACCACTTCGTAAACAGATAAAAATATCAAGTCAGTTTGGTGTAAACAGACCAACAGCAGGAGAAGCCAGCATCCTTCTTAGATGGGA,0.479

# Set 4
# Target: Sal-like protein 4, full length isoform A (SALL4, Homo sapiens, UniProt Q9UJQ4, residues 1-1053)
# Chain of UniProt Q9UJQ4 (whole entry, looked up): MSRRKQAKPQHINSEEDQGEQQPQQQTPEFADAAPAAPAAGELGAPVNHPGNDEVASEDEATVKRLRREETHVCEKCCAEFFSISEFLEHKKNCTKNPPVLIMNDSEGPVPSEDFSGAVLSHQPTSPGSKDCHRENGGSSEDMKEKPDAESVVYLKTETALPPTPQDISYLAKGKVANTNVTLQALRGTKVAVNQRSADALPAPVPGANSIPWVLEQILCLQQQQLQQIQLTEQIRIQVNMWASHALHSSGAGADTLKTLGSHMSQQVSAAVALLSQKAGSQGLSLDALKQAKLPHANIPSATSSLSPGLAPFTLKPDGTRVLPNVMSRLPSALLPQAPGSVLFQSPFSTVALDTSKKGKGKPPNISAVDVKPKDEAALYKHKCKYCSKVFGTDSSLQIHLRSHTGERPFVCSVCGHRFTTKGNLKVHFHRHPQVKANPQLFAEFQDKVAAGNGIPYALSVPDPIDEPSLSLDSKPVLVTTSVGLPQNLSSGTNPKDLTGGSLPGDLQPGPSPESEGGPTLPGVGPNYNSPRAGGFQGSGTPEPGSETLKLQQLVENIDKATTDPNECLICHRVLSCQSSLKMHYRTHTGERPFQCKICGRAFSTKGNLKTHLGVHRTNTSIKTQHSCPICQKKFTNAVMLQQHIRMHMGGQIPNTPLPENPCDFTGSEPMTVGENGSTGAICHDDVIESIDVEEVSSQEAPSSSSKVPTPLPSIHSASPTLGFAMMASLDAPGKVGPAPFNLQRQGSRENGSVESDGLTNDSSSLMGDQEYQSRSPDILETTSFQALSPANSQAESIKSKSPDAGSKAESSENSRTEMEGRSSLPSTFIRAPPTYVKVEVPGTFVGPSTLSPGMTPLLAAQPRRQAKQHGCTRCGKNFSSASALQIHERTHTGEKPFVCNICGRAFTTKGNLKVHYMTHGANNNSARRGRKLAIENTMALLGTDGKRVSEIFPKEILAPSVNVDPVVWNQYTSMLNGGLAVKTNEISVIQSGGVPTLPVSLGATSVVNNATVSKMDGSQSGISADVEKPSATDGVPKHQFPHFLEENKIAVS
# Method: universal PBM
# Molecule type: double-stranded DNA, one strand shown
# Sample: in vitro
# Concentration: 600 nM
# Notes: 8-mer, flanks averaged, mean of replicates
# Reading: higher = stronger binding
Strand,E-score
CTAGTTGA,0.0576
ACAGTTCA,0.128
GTGACACA,0.0775
AGGGAGGC,-0.25
AGCCGGAA,-0.151
CCGCGGGA,-0.29
AAGATCTT,0.211
CCTGTATC,0.0991
CCCCTTCA,-0.0885
AAATCCAT,0.289
GTCTCGCA,-0.218
ATGGCTGA,-0.015
CAGCTCTC,-0.203
GCATGGTA,-0.0327
GAACATTC,0.109
TAAAACTA,0.285
ATCAGCCG,-0.287
TAGGCCTA,0.12
CCGATCCG,-0.336
ACCGGAAC,-0.222
CCAGGTAG,-0.156
AACACACA,0.108
AGCCCCAT,-0.167

# Repeated from above (set 4):
Strand,E-score
GTCTCGCA,-0.218
AAATCCAT,0.289
CCTGTATC,0.0991
AGCCGGAA,-0.151
